Results from different studies.
Lines come from different studies, so protocols differ. ± gives the spread as reported.
USP33 ZnF-UBD domain: Ubiquitin carboxyl-terminal hydrolase 33, ZnF-UBD domain (USP33, Homo sapiens, UniProt Q8TEY7)
Chain of UniProt Q8TEY7 (whole entry, looked up): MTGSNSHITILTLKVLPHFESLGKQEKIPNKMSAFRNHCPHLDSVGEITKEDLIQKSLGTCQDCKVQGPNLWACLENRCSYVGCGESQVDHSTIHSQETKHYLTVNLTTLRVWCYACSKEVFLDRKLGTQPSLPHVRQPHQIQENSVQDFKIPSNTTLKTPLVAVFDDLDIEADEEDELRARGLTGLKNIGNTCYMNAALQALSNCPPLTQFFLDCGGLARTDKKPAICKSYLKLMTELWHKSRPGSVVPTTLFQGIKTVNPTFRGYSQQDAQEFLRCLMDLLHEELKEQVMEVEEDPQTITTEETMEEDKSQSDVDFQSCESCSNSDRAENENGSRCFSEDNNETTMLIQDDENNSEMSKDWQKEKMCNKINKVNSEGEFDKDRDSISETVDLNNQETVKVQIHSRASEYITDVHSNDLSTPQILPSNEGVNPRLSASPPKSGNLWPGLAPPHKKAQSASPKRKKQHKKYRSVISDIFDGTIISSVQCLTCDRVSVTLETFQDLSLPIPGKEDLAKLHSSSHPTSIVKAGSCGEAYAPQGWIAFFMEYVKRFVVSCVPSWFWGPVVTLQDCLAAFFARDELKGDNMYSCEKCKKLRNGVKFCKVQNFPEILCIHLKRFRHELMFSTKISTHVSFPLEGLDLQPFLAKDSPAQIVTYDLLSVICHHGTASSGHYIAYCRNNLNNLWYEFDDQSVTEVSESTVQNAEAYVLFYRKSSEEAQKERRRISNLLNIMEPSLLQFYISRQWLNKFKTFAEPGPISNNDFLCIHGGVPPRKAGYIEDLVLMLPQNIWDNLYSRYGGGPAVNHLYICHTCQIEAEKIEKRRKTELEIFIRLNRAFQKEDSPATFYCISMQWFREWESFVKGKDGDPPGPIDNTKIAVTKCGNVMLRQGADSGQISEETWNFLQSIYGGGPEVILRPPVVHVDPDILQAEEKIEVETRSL
IDE: Insulin-degrading enzyme (IDE, Homo sapiens, UniProt P14735)
Chain of UniProt Q13422 (whole entry, looked up): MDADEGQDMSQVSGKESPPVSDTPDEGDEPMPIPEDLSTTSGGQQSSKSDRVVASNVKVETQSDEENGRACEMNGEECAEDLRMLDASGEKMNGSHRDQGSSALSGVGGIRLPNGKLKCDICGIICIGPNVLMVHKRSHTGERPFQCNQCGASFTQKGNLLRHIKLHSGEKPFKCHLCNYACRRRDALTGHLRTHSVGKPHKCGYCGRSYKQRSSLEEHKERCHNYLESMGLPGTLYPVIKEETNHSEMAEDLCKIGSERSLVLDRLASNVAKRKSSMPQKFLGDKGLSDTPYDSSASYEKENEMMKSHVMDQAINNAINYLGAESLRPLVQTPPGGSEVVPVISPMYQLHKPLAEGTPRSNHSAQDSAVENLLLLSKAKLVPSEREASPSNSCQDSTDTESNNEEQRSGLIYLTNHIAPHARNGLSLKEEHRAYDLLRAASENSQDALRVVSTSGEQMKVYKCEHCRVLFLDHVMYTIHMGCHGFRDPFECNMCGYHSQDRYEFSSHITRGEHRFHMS
Chain of UniProt Q96SW2 (whole entry, looked up): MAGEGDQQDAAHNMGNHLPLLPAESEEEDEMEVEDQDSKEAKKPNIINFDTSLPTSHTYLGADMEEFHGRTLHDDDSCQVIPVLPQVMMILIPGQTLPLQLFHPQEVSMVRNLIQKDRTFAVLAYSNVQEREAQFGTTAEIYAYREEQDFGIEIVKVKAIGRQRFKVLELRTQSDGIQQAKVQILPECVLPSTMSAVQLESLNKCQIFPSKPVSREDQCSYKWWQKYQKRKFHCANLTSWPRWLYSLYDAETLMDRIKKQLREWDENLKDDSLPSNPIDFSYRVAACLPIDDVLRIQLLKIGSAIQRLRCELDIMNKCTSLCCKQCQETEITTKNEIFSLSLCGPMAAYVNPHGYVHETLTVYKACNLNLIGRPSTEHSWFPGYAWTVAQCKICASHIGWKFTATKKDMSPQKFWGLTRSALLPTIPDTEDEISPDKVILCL

NS(=O)(=O)c1nnc(NC(=O)C(F)C2CCCCC2)s1 (stereo not shown)
Ki (Enterococcus faecium γ-carbonic anhydrase; CO2 hydration, inhibitor, stopped-flow kinetics): 0.225 µM

CC(C)(NCCc1ccc(C(F)(F)F)c(Cl)c1)c1cccc(NC2=CC(=O)N(C3CCC(=O)NC3=O)C2=O)c1 (stereo not shown)
DC50 (Cereblon/Ikaros (Homo sapiens, UniProt Q13422+Q96SW2); degrader; human cells): 0.01 ± 0.001 µM

O=C(O)Cc1cccc2cccnc12
Kd (USP33 ZnF-UBD domain): > 1000 µM

COc1ccccc1-c1ccc([C@H]2[C@@H](CO)N3CCCCN(C(=O)NC4CCCC4)C[C@H]23)cc1
EC50 (IDE; enzyme activity, inhibitor, fluorogenic kinetic; together with: Mca-RPPGFSAFK(Dnp)-OH substrate): 2.6 µM

CC1(C(=O)Nc2nnc(S(N)(=O)=O)s2)COC1
Ki (Enterococcus faecium γ-carbonic anhydrase; CO2 hydration, inhibitor, stopped-flow kinetics): 0.328 µM

O=C(O)CNc1ncnc2ccccc12
Kd (USP33 ZnF-UBD domain): > 1000 µM

Cc1ccccc1CCC(=O)Nc1nnc(S(N)(=O)=O)s1
Ki (Enterococcus faecium γ-carbonic anhydrase; CO2 hydration, inhibitor, stopped-flow kinetics): 0.0584 µM

Cc1ccccc1-c1ccc([C@@H]2[C@@H](CO)N3CCCCN(C(=O)CN4CCOCC4)C[C@@H]23)cc1
EC50 (IDE; enzyme activity, inhibitor, fluorogenic kinetic; together with: Mca-RPPGFSAFK(Dnp)-OH substrate): 6.4 µM

CC(C(=O)Nc1nnc(S(N)(=O)=O)s1)C1CCCCC1 (stereo not shown)
Ki (Enterococcus faecium γ-carbonic anhydrase; CO2 hydration, inhibitor, stopped-flow kinetics): 0.256 µM

Cc1cccc(-c2ccc([C@@H]3[C@H]4CN(C(=O)c5ccncc5)CCCCN4[C@H]3CO)cc2)c1
EC50 (IDE; enzyme activity, inhibitor, fluorogenic kinetic; together with: Mca-RPPGFSAFK(Dnp)-OH substrate): 4.9 µM

O=C(O)CCN1C(=O)c2ccccc2S1(=O)=O
Kd (USP33 ZnF-UBD domain): > 1000 µM

Cc1cccc(-c2ccc([C@H]3[C@H](CO)N4C(=O)CN(C(=O)NC5CCCCC5)C[C@@H]34)cc2)c1
EC50 (IDE; enzyme activity, inhibitor, fluorogenic kinetic; together with: Mca-RPPGFSAFK(Dnp)-OH substrate): 3.2 µM

O=C(O)CCC(=O)c1cccs1
Kd (USP33 ZnF-UBD domain): > 1000 µM

For quick reference, copied from above:
O=C(O)CCC(=O)c1cccs1
Kd (USP33 ZnF-UBD domain): > 1000 µM
